{"sequences": {"note": "Protein sequences, listed by entry. Tags and fused reporters are not part of them. Residues count along the entry.", "UniProt P02769, 25-607 limits assumed": "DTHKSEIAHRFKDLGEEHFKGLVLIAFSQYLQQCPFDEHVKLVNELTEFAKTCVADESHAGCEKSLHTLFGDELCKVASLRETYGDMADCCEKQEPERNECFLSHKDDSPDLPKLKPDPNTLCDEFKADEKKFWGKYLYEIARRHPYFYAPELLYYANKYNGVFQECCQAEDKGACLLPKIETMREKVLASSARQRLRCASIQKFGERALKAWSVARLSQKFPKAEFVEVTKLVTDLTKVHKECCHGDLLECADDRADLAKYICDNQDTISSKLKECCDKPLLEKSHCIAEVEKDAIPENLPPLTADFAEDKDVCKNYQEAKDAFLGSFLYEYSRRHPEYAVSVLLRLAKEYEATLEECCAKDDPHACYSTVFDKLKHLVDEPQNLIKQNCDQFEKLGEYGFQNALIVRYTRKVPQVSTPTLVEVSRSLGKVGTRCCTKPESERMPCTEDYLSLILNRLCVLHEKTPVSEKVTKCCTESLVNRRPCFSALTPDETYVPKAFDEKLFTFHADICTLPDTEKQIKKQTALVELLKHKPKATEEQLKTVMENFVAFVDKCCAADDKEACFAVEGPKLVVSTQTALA", "UniProt Q12809, whole entry": "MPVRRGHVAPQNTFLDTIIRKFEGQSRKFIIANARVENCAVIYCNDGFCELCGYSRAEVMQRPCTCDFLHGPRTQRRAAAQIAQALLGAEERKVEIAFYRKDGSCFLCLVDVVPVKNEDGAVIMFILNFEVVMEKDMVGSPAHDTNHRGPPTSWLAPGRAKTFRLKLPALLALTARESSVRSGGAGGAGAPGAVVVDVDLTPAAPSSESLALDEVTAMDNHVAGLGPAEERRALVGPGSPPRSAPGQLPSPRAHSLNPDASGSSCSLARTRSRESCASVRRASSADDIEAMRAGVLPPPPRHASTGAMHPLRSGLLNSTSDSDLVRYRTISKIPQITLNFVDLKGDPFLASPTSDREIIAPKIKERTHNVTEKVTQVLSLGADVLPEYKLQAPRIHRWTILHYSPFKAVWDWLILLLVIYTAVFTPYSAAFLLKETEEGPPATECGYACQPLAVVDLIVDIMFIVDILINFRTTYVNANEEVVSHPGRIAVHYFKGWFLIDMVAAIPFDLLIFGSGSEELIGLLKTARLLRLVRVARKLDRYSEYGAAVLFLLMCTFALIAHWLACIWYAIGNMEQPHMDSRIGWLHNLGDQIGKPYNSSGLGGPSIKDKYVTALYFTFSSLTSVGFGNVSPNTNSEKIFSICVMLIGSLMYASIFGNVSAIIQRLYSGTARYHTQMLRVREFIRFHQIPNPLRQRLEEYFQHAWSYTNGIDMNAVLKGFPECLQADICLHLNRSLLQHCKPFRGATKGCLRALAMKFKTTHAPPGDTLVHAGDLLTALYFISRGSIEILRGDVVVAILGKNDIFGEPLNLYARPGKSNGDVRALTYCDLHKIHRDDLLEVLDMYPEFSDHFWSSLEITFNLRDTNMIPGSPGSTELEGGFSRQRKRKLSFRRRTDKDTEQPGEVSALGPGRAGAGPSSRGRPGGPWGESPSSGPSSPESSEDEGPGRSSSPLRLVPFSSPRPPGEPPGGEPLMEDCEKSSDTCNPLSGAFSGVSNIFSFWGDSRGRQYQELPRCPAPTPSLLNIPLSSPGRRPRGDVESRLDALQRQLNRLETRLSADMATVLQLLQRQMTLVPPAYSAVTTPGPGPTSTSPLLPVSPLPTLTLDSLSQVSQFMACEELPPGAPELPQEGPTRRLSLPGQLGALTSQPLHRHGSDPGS", "UniProt P08183, whole entry": "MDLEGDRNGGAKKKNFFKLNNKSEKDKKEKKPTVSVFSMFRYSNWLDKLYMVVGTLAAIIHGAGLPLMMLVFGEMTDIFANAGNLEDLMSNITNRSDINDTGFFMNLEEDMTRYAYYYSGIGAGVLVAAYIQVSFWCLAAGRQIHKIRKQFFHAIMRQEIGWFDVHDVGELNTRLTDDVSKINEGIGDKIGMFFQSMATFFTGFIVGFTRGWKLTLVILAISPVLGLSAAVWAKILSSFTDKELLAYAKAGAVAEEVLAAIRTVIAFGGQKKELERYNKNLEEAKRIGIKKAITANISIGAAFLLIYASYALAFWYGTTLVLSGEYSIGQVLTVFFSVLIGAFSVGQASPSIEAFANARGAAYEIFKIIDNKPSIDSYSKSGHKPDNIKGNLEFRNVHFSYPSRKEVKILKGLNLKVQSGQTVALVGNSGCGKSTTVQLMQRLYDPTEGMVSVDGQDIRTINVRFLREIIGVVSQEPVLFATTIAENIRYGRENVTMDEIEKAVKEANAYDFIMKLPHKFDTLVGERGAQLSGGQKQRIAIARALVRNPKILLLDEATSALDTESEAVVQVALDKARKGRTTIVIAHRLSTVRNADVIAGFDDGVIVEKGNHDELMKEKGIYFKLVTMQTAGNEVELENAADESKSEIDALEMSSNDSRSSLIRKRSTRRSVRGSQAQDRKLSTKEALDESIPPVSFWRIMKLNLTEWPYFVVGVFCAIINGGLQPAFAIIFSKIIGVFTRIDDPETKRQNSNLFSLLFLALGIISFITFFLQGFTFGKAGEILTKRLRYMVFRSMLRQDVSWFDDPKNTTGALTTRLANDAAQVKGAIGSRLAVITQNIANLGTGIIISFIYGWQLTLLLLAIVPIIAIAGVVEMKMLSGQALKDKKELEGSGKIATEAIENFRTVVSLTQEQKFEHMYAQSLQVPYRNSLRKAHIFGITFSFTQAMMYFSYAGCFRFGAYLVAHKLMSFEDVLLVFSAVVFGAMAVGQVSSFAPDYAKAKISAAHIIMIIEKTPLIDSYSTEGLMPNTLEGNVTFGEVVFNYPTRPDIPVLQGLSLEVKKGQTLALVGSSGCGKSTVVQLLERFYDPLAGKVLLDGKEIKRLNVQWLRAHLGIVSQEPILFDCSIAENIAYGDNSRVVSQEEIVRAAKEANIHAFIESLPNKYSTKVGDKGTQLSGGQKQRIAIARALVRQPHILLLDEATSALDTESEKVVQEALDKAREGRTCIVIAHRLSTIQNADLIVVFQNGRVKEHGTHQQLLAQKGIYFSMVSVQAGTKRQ", "UniProt Q9Y616, whole entry": "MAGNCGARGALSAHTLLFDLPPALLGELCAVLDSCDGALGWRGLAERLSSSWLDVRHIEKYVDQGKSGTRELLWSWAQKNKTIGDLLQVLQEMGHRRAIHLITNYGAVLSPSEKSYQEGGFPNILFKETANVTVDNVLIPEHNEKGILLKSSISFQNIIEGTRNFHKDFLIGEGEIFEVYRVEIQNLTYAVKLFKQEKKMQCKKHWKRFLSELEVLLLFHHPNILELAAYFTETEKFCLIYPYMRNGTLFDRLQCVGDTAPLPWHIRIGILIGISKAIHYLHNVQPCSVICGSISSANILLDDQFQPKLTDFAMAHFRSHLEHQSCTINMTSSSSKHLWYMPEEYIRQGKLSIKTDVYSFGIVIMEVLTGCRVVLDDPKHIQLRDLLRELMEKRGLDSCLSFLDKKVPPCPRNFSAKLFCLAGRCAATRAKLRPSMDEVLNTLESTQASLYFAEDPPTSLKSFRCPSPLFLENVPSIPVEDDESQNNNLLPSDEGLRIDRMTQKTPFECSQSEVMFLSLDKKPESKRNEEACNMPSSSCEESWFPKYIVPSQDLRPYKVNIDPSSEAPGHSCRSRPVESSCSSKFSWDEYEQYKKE", "UniProt P08684, whole entry": "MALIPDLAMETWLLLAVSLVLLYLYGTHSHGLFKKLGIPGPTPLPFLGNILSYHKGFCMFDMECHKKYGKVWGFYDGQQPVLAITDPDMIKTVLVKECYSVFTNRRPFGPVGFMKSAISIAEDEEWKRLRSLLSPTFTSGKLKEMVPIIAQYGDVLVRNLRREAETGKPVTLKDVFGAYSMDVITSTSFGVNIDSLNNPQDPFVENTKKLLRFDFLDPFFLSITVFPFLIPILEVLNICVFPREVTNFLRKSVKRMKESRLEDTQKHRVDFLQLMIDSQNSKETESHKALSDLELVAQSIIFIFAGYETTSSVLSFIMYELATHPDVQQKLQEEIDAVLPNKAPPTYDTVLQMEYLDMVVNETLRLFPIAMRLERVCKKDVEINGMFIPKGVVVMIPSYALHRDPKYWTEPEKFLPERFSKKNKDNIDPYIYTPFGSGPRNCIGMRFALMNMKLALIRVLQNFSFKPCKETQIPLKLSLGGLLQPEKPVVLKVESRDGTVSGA"}, "data": "Assay results pooled from the literature", "ALB": "Albumin (ALB, Bos taurus, UniProt P02769)", "note": "Protocols differ between the studies behind these lines. ± gives the spread as reported."}
{"Molecule": "C[C@H](Cc1ccc(O)c(O)c1)[C@@H](C)Cc1ccc(O)c(O)c1", "system": "human skin", "conditions": "3% w/v solution, 24 h", "quantity": "total amount delivered", "result": "37.5 ± 4.32 µg"}
{"Molecule": "C=C[C@@H]1[C@H]2CCC[C@]1(c1cccc(O)c1)CCN2CCc1ccccc1", "system": "rat liver microsomes 0.5 mg/mL", "conditions": "1 µM, pH 7.4, with: NADPH", "quantity": "half-life", "result": "2.4 min"}
{"Molecule": "N#Cc1c(-c2ccc(-c3no[n+]([O-])c3C#N)s2)no[n+]1[O-]", "tested on": "Voltage-gated inwardly rectifying potassium channel KCNH2 (KCNH2, Homo sapiens, UniProt Q12809)", "test": "potassium current, automated patch clamp", "system": "HEK293, hERG-transfected", "conditions": "10 µM", "quantity": "inhibition", "result": "83.9%"}
{"Molecule": "COc1ccc(Nc2cc(C)c3cc(NC(=O)c4ccc(N(C)C)cc4)ccc3n2)cc1", "test": "dynamic light scattering", "system": "assay buffer", "conditions": "40 µM, without Tween 20", "quantity": "particle size", "result": "0.7 nm"}
{"Molecule": "C#CCCCCCC(=O)O", "tested on": "Escherichia coli", "conditions": "concentration not given", "quantity": "growth reduction", "result": "no effect"}
{"Molecule": "C[C@H](NC(=O)[C@@H]1CCCN1C(=O)[C@H](CC(N)=O)NC(=O)[C@H](Cc1c[nH]c2ccccc12)NC(=O)[C@@H]1CSSC[C@H](NC(=O)CN)C(=O)N1)C(=O)N[C@H]1CSSC[C@@H](C(N)=O)NC(=O)[C@H](Cc2ccc(O)cc2)NC(=O)[C@H](Cc2c[nH]cn2)NC(=O)[C@H](CCCCN)NC(=O)CNC1=O", "test": "RP-HPLC", "system": "mouse serum 25%", "conditions": "50 µM, 6 h, 37 °C", "quantity": "degradation to non-isomer products", "result": "58.3 ± 0.42%"}
{"Molecule": "COc1ccc(C[C@@H](C)NC[C@H](O)c2ccc(O)c(NC=O)c2)cc1", "tested on": "RD", "test": "cytotoxicity", "conditions": "72 h", "quantity": "CC50", "result": "146 ± 27.8 µM"}
{"Molecule": "zidovudine", "tested on": "Vero", "test": "cytotoxicity", "quantity": "CC50", "result": "56 µM"}
{"Molecule": "COC(=O)c1ccc(Cl)cc1NC(=O)CSc1ncc(S(=O)(=O)c2ccc(Br)cc2)c(=O)[nH]1", "test": "dynamic light scattering", "system": "assay buffer", "conditions": "40 µM, with Tween 20", "quantity": "particle size", "result": "7.5 nm"}
{"Molecule": "O=C(Nc1nc(-c2ccc3ccccc3c2)cs1)c1cccs1", "tested on": "ALB", "test": "binding, fluorescence quenching", "conditions": "pH 7.4", "quantity": "IC50", "result": "12.7 µM"}
{"Molecule": "CCOc1ccc2cc(-c3nn(CC4CCN(C)CC4)c4ncnc(N)c34)ccc2n1", "tested on": "Salmonella enterica serovar Typhimurium", "test": "Ames test", "conditions": "with: S9 metabolic activation", "quantity": "mutagenicity", "result": "negative"}
{"Molecule": "CSCC[C@@H](C=O)NC(=O)[C@H](CC(C)C)NC(=O)[C@H](CC(C)C)NC(C)=O", "tested on": "Vero", "test": "neutral red uptake", "conditions": "48 h", "quantity": "CC50", "result": "> 100 µM"}
{"Molecule": "CO[C@]12CC[C@@]3(C[C@@H]1C(C)(C)O)[C@H]1Cc4ccc(O)c5c4[C@@]3(CCN1CC1CC1)[C@H]2O5", "tested on": "ATP-dependent translocase ABCB1 (ABCB1, Homo sapiens, UniProt P08183)", "test": "P-gp ATPase activity", "conditions": "5 µM, 40 min", "how to read": "reference: basal activity, negative means inhibition", "quantity": "fold stimulation", "result": "-0.59 ± 0.77 fold"}
{"Molecule": "CC(=O)N1C[C@@H](COP(=O)(N(C)C)N2C[C@@H](COP(=O)(N(C)C)N3C[C@@H](COP(=O)(N(C)C)N4C[C@@H](COP(=O)(N(C)C)N5C[C@@H](COP(=O)(N(C)C)N6C[C@@H](COP(=O)(N(C)C)N7C[C@@H](COP(=O)(N(C)C)N8C[C@@H](COP(=O)(N(C)C)N9C[C@@H](COP(=O)(N(C)C)N%10C[C@@H](COP(=O)(N(C)C)N%11C[C@@H](COP(=O)(N(C)C)N%12C[C@@H](COP(=O)(N(C)C)N%13C[C@@H](COP(=O)(N(C)C)N%14C[C@@H](COP(=O)(N(C)C)N%15C[C@@H](COP(=O)(N(C)C)N%16C[C@@H](COP(=O)(N(C)C)N%17C[C@@H](COP(=O)(N(C)C)N%18C[C@@H](COP(=O)(N(C)C)N%19C[C@@H](COP(=O)(N(C)C)N%20C[C@@H](COP(=O)(N(C)C)N%21C[C@@H](COP(=O)(N(C)C)N%22C[C@@H](COP(=O)(N(C)C)N%23C[C@@H](COP(=O)(N(C)C)N%24CCN(C(=O)CCCN%25C(=O)CC(SC[C@H](NC(=O)[C@H](CCCNC(=N)N)NC(=O)[C@H](CCCNC(=N)N)NC(=O)[C@H](CCCNC(=N)N)NC(=O)[C@H](CCCNC(=N)N)NC(=O)[C@H](Cc%26ccccc%26)NC(=O)[C@H](Cc%26ccccc%26)NC(=O)[C@H](CCCNC(=N)N)NC(=O)[C@H](CCCNC(=N)N)NC(=O)[C@H](CCCNC(=N)N)NC(=O)[C@H](CCCNC(=N)N)NC(=O)[C@@H](N)CCCNC(=N)N)C(N)=O)C%25=O)CC%24)O[C@@H](n%24cnc%25c(=O)[nH]c(N)nc%25%24)C%23)O[C@@H](n%23cc(C)c(=O)[nH]c%23=O)C%22)O[C@@H](n%22ccc(N)nc%22=O)C%21)O[C@@H](n%21cnc%22c(N)ncnc%22%21)C%20)O[C@@H](n%20cc(C)c(=O)[nH]c%20=O)C%19)O[C@@H](n%19ccc(N)nc%19=O)C%18)O[C@@H](n%18cc(C)c(=O)[nH]c%18=O)C%17)O[C@@H](n%17cc(C)c(=O)[nH]c%17=O)C%16)O[C@@H](n%16cnc%17c(=O)[nH]c(N)nc%17%16)C%15)O[C@@H](n%15ccc(N)nc%15=O)C%14)O[C@@H](n%14cnc%15c(=O)[nH]c(N)nc%15%14)C%13)O[C@@H](n%13ccc(N)nc%13=O)C%12)O[C@@H](n%12ccc(N)nc%12=O)C%11)O[C@@H](n%11cnc%12c(N)ncnc%12%11)C%10)O[C@@H](n%10cc(C)c(=O)[nH]c%10=O)C9)O[C@@H](n9cc(C)c(=O)[nH]c9=O)C8)O[C@@H](n8cc(C)c(=O)[nH]c8=O)C7)O[C@@H](n7cc(C)c(=O)[nH]c7=O)C6)O[C@@H](n6cc(C)c(=O)[nH]c6=O)C5)O[C@@H](n5cnc6c(=O)[nH]c(N)nc65)C4)O[C@@H](n4cc(C)c(=O)[nH]c4=O)C3)O[C@@H](n3cnc4c(=O)[nH]c(N)nc43)C2)O[C@@H](n2cnc3c(=O)[nH]c(N)nc32)C1 (stereo partly drawn)", "tested on": "BCBL1 cells", "conditions": "16 µM, 4 h", "quantity": "cell mortality", "result": "~5%"}
{"Molecule": "Cc1cc(C)c(CNC(=O)c2cc(-c3ccc(N4CCN(CCNC(=O)CC56CC7CC(CC(C7)C5)C6)CC4)nc3)cc3c2cnn3C(C)C)c(=O)[nH]1", "system": "mouse MDA-MB-468 xenograft", "conditions": "i.p., 150 mg/kg once daily, 36 days", "quantity": "tolerability", "result": "not toxic"}
{"Molecule": "O=[N+]([O-])O[C@H]1CO[C@H]2[C@@H]1OC[C@H]2O[N+](=O)[O-]", "tested on": "HaCaT", "conditions": "100 µM, 18 h", "quantity": "viability", "result": "110%"}
{"Molecule": "COc1cc(OC)c2ccccc2c1C=C1C(=O)NC(=S)NC1=O", "system": "C57BL/6 mouse", "conditions": "intraperitoneal, dose not given, over two weeks daily", "quantity": "body weight loss", "result": "≤ 10%"}
{"Molecule": "CCN1CCN(Cc2ccc(NC(=O)c3ccc(C)c(/C=C/c4cnc5[nH]ccc5c4OC)c3)cc2C(F)(F)F)CC1", "tested on": "Interleukin-1 receptor-associated kinase 3, with CDC37 (IRAK3, Homo sapiens, UniProt Q9Y616)", "test": "inhibitor, kinome profiling", "system": "human cells", "conditions": "5 µM", "how to read": "reference: vehicle", "quantity": "log2 fold change", "result": 0.295}
{"Molecule": "CC(CCC(=O)N(CCNC(=O)C(F)(F)F)CC(=O)O)[C@H]1CC[C@H]2[C@@H]3[C@H](O)C[C@@H]4C[C@H](O)CC[C@]4(C)[C@H]3C[C@H](O)[C@]12C (stereo partly drawn)", "system": "mouse, gallbladder", "how to read": "reference: MRI over LC-MS/MS", "quantity": "concentration ratio", "result": "2.3 fold"}
{"Molecule": "CC#C/C(=N\\OC[C@H]1COCCN1)c1ccc2ncnc(Nc3ccc(OCc4cccc(F)c4)c(Cl)c3)c2c1", "system": "nude mouse, plasma", "conditions": "oral, 50 mg/kg", "quantity": "Tmax", "result": "60 min"}
{"Molecule": "O=C(Nc1ccccc1)c1cc([N+](=O)[O-])ccc1Cl", "tested on": "Salmonella typhimurium", "test": "Ames plate incorporation", "system": "TA98", "conditions": "50 µg/plate, without metabolic activation", "quantity": "revertants", "result": "55 ± 14 revertants/plate"}
{"Molecule": "O=C(COc1ccccc1Cl)N1CCN(c2ccc3nncn3n2)CC1", "tested on": "ALB", "test": "binding, fluorescence quenching", "conditions": "pH 7.4", "quantity": "IC50", "result": "> 100 µM"}
{"Molecule": "CO[C@]12CC[C@@]3(C[C@@H]1C(C)(C)O)[C@H]1Cc4ccc(O)c5c4[C@@]3(CCN1CC1CC1)[C@H]2O5", "tested on": "Cytochrome P450 3A4 (CYP3A4, Homo sapiens, UniProt P08684)", "test": "human liver microsomes", "conditions": "10 µM", "quantity": "inhibition", "result": "35.3%"}
{"Molecule": "CCCCCCCCCCCCCC(=S)NCCCC[C@H](NC(=O)OCc1ccccc1)C(=O)Nc1cccc(O)c1", "tested on": "MCF-10A", "test": "cell growth", "conditions": "normal cells K-Ras wild type", "quantity": "GI50", "result": "3 ± 1.2 µM"}
{"note": "A few entries again:"}
{"Molecule": "CCCCCCCCCCCCCC(=S)NCCCC[C@H](NC(=O)OCc1ccccc1)C(=O)Nc1cccc(O)c1", "tested on": "MCF-10A", "test": "cell growth", "conditions": "normal cells K-Ras wild type", "quantity": "GI50", "result": "3 ± 1.2 µM"}
{"Molecule": "C#CCCCCCC(=O)O", "tested on": "Escherichia coli", "conditions": "concentration not given", "quantity": "growth reduction", "result": "no effect"}
{"Molecule": "CO[C@]12CC[C@@]3(C[C@@H]1C(C)(C)O)[C@H]1Cc4ccc(O)c5c4[C@@]3(CCN1CC1CC1)[C@H]2O5", "tested on": "Cytochrome P450 3A4 (CYP3A4, Homo sapiens, UniProt P08684)", "test": "human liver microsomes", "conditions": "10 µM", "quantity": "inhibition", "result": "35.3%"}
